Experimental data from different studies.
Compare with care: the assays were run in different laboratories. Several values in a cell are separate wells, animals, samples, runs or records. ± gives the spread as reported.
MT-CYB/UQCRFS1: MT-CYB/UQCRFS1 (Homo sapiens, UniProt P00156+P47985)
UniProt P00156, sequence (whole entry, looked up): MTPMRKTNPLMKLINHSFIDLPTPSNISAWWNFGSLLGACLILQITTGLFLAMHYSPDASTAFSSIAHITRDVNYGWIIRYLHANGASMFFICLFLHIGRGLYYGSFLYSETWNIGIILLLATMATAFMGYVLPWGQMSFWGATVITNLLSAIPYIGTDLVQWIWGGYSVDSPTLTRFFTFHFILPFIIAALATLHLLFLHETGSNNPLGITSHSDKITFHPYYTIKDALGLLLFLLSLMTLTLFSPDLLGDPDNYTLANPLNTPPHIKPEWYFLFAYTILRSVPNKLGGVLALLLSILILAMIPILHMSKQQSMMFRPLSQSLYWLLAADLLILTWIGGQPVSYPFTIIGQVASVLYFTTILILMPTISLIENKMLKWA
UniProt P47985, sequence (whole entry, looked up): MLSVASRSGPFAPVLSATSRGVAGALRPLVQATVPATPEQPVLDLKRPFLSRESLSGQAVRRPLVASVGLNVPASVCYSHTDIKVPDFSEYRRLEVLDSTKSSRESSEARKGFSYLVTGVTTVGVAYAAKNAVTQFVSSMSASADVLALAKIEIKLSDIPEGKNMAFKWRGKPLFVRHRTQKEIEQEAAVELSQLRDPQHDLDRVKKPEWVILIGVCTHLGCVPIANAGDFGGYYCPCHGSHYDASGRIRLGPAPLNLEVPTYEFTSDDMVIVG
KEAP1 Kelch domain: Kelch-like ECH-associated protein 1, Kelch domain (KEAP1, Homo sapiens, UniProt Q14145)
UniProt O76090, sequence (whole entry, unmodified, looked up): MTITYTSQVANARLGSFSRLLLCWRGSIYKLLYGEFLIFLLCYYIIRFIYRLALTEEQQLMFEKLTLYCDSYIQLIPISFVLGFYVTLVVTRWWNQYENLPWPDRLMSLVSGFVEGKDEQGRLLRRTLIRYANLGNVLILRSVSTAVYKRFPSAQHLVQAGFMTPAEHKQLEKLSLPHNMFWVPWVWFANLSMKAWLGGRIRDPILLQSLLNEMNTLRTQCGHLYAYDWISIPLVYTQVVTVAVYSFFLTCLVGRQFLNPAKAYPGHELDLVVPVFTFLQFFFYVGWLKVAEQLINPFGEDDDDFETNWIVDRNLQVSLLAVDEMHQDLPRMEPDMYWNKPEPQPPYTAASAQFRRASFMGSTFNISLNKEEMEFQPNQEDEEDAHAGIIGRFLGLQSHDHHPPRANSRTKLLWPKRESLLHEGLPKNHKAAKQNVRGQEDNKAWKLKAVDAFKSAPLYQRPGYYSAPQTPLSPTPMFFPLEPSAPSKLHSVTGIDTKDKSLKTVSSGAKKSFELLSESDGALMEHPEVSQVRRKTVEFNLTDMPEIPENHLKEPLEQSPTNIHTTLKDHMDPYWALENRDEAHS
UniProt Q14145, sequence (whole entry, looked up): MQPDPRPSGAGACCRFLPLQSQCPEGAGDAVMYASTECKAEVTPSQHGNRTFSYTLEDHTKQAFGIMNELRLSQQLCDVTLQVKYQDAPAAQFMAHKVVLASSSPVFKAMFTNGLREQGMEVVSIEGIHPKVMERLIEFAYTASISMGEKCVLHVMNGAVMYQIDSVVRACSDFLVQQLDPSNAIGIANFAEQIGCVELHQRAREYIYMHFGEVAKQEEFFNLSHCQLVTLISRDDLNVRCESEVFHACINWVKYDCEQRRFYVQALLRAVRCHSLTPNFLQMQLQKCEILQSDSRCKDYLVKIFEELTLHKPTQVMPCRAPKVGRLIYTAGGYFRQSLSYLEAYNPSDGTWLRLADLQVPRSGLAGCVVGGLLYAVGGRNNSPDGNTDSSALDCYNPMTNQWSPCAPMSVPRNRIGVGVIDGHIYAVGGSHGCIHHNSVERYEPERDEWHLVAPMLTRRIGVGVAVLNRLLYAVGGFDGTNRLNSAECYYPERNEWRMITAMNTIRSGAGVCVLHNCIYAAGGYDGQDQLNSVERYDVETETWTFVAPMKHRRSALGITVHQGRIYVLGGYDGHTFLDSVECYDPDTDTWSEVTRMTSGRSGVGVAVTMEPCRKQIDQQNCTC
UniProt Q8NFN8, sequence (whole entry, looked up): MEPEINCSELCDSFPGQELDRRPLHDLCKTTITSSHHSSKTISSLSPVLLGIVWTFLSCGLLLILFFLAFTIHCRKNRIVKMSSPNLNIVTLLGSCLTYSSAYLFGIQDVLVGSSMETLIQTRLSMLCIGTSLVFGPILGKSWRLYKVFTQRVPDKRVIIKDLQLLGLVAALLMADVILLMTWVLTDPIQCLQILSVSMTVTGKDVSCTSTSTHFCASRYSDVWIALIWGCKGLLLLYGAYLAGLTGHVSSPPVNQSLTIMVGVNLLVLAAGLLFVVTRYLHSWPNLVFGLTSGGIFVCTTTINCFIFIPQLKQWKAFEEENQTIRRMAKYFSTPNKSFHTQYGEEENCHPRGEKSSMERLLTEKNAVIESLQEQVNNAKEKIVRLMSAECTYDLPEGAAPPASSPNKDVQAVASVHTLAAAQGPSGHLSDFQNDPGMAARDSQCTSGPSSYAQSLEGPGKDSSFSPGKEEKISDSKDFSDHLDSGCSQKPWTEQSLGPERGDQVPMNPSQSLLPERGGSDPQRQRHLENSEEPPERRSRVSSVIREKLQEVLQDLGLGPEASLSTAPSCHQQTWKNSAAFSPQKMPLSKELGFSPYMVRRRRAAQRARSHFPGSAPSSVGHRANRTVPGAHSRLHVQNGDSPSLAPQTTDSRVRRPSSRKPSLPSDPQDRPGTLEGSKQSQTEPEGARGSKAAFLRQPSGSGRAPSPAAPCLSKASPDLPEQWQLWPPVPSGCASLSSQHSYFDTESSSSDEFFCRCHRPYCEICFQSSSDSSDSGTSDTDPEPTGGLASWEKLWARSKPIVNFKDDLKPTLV
UniProt Q16774, sequence (whole entry, unmodified, looked up): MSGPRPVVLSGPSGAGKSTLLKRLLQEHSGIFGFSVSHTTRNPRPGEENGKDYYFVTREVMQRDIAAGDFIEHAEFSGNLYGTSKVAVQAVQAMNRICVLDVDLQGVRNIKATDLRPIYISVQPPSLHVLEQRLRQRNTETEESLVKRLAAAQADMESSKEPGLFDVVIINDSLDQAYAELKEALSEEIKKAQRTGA
UniProt Q04917, sequence (whole entry, looked up): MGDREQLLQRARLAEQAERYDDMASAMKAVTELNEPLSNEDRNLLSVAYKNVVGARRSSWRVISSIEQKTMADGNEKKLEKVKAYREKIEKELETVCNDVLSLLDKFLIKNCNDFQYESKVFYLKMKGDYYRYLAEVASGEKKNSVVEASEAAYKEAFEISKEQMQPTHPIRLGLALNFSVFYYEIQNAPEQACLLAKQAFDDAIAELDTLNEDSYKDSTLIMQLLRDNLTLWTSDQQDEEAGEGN
UniProt Q86Y07, sequence (whole entry, looked up): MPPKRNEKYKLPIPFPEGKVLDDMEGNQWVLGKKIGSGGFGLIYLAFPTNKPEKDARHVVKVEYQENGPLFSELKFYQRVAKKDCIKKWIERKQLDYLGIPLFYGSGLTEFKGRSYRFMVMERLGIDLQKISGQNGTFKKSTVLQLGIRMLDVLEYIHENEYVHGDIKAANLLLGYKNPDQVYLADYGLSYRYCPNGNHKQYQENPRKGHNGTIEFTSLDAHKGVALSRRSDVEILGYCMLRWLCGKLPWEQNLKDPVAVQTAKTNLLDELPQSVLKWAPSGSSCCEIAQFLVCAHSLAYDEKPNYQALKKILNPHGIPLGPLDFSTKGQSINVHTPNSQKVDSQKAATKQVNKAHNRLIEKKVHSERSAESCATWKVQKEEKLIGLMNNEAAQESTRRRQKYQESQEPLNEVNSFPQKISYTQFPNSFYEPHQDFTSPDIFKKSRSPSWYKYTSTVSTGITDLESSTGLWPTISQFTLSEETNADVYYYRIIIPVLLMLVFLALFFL
UniProt Q9ULW8, sequence (whole entry, looked up): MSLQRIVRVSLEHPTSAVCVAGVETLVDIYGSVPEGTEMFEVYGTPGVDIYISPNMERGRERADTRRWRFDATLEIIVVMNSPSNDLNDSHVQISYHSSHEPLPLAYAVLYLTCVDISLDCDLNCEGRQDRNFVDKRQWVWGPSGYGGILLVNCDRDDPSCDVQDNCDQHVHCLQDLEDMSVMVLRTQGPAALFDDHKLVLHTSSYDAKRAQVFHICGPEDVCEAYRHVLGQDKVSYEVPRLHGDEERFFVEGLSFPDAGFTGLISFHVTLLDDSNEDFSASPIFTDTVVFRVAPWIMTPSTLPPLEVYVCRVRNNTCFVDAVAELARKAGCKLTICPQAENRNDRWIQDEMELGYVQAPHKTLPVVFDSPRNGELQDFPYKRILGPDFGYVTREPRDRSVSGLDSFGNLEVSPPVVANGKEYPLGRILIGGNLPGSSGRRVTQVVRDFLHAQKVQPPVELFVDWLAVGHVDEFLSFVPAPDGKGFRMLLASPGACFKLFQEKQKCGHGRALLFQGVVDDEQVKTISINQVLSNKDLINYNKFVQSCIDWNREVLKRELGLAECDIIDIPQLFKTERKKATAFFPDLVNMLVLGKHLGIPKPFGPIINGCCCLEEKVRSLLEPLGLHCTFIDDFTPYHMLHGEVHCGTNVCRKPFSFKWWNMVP
UniProt Q9BY41, sequence (whole entry, unmodified, looked up): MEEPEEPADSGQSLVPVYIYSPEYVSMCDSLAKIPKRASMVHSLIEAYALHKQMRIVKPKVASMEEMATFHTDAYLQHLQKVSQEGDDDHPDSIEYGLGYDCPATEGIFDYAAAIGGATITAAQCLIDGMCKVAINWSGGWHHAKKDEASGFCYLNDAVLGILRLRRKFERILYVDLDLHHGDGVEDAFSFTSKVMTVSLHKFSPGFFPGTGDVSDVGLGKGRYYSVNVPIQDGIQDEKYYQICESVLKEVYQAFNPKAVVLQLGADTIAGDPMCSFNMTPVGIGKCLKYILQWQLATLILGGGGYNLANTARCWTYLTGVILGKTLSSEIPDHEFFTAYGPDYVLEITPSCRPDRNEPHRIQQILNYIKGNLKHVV
UniProt P09391, sequence (whole entry, looked up): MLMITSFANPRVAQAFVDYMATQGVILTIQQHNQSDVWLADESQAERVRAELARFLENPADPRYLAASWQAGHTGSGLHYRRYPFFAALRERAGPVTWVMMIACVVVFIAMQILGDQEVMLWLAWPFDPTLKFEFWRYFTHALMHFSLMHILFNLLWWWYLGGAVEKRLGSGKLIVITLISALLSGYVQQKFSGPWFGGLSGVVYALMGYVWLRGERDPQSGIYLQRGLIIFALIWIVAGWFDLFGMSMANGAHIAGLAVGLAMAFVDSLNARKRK

`CCc1cnn2c(NCc3ccc[n+]([O-])c3)cc(N3CCCC[C@H]3CCO)nc12`: “chemical shift change” -0.009 ppm (BRD4 (Homo sapiens, UniProt O60885); 19F NMR, measured: tyrosine 118; 94 µM; baseline: free protein).
With `OC[C@H]1OC(O)[C@H](O)[C@@H](O)[C@@H]1O` (stereo partly drawn) the Km was 400 µM (hexokinase yeast; substrate; pH 8.0, 25 °C, 1.5 mM MgCl2, with: ATP varied).
`Nc1nc2c(ncn2[C@@H]2O[C@H](COP(=O)(O)O)[C@@H](O)[C@H]2O)c(=O)[nH]1` gave a ΔG of -5.71 kcal/mol (GUK1 (Homo sapiens, UniProt Q16774, R148A); binding, ITC).
Under “share of total products”, `O=C1Nc2ccc(Br)cc2C1O` (stereo not drawn) is recorded as 8.7% (Dehaloperoxidase B, ferric (Amphitrite ornata, UniProt Q9NAV7); product, HPLC; with: 5-bromoindole 500 µM, H2O2 50 µM).
`CCn1c(-c2nc3cc(C(=O)N4CCC[C@@H](N)C4)cc(OC)c3n2C)cc2cccnc21` — result for citrullination: “no effect” (PADI3 (Homo sapiens, UniProt Q9ULW8); enzyme activity, cell lysate; HEK293 expressing PADI3; 100 µM, with: calcium 2 mM).
`NC(=O)NOCCCCCCCCCCCC[P+](c1ccccc1)(c1ccccc1)c1ccccc1.O=C([O-])C(F)(F)F` — result for “oxygen consumption rate”: 51.3 ± 4.32% (MT-CYB/UQCRFS1; complex III-dependent respiration, Seahorse XF96; HCT-116; 2.5 µM, 24 h; baseline: control).
`O=C(COP(=O)(O)O)[C@@H](O)[C@H](O)[C@H](O)COP(=O)(O)O`: “thermal stability ratio” 0.567 (14-3-3 protein eta (Homo sapiens, UniProt Q04917); thermal proteome profiling, measured: YWHAH; HepG2 cell lysate; concentration not given, 57 over 37 °C, mean; baseline: compound over control).
For `O=C(N[C@H]1COC(=O)[C@@H](NC(=O)c2cccc([O-])c2[O-])COC(=O)[C@@H](NC(=O)c2cccc([O-])c2[O-])COC1=O)c1cccc([O-])c1[O-].[Fe+3]`, “maximum fluorescence quenching” read about 60% (uncharacterized protein (Bordetella pertussis, UniProt Q7VXW9); siderophore binding, fluorescence quenching titration; pH 6.5, with: ferric siderophore).
`Cc1cc2c(cc1N1C(=O)c3cccc4c(Cl)ccc(c34)C1=O)n(C)c(=O)n2C` has a ΔTm of -0.4 °C (Peregrin, isoform A (BRPF1, Homo sapiens, UniProt P55201); thermal shift; 10 µM).
With `O=C(O)C(O)c1ccccc1` (racemic) the inhibition was 13.9% (THP-1; pyroptotic LDH release; 2 µM, 40 min, with: LPS then nigericin).
The remaining binding of `C=CC(=O)N1CCC(C(=O)NCC(=O)N2CCN(c3nc(-c4cnc(N)nc4C(F)F)nc(N4CCOCC4)n3)CC2)CC1` is reported as 71% (TRPM6 (Homo sapiens, UniProt Q9BX84); KINOMEscan; 1 µM).
For `CCCC(CCC)c1nc2c(Nc3ccc(C#CCCCCCCCCN)cc3)nc3ccccc3c2[nH]1`, off-target affinity read “inactive” (OPRD1 (Homo sapiens, UniProt P41143); PDSP screening).
`NC(=O)NO`: “oxygen consumption rate” 81.2 ± 3.91% (MT-CYB/UQCRFS1; complex III-dependent respiration, Seahorse XF96; HCT-116; 30 µM, 24 h; baseline: control).
`CCN1CCC[C@H]1CNC(=O)c1c(O)c(Cl)cc(Cl)c1OC` — result for “log2 fold change”: -0.00471 (Probable G-protein coupled receptor 156 (GPR156, Homo sapiens, UniProt Q8NFN8); β-arrestin recruitment, TANGO luminescence, measured: GPR156; concentration not given; baseline: basal luminescence).
The inhibition of `CCN(O)N=Nc1ccc(S(=O)(=O)Nc2nccs2)cc1` is reported as 32.5 ± 0.04% (α-glucosidase, rat intestine; enzyme activity; 120 µg/mL, with: 4-nitrophenyl α-D-glucopyranoside).
`CC(=O)N[C@@H](CO)C(=O)N[C@@H](CC(C)C)C(=O)N[C@@H](CCC(=O)O)C(=O)N[C@@H](CCC(=O)O)C(=O)N1CCC[C@H]1C(=O)N[C@@H](Cc1c[nH]cn1)C(=O)N[C@@H](CO)C(=O)N1CCC[C@H]1C(=O)N[C@@H](CCC(=O)O)C(=O)N[C@H](C(=O)NCC(=O)N[C@@H](CCC(=O)O)C(=O)N[C@@H](CCCCN)C(=O)N[C@H](C(=O)N[C@H](C(=O)N[C@@H](C)C(=O)NCC(=O)N[C@@H](CCC(=O)O)C(=O)N[C@H](C(=O)N[C@@H](CC(N)=O)C(N)=O)C(C)C)C(C)C)C(C)C)[C@@H](C)O` has a ΔG of -8.97 ± 0.05 kcal/mol (KEAP1 Kelch domain; binding, ITC; pH 7, 298.15 K).
`NC(=O)NOCCCCCCCCCCCCCCCCCCCC[P+](c1ccccc1)(c1ccccc1)c1ccccc1.O=C([O-])C(F)(F)F` — result for “oxygen consumption rate”: 101% (MT-CYB/UQCRFS1; complex III-dependent respiration, Seahorse XF96; HCT-116; 0.2 µM, 24 h; baseline: control).
`CC(C)CC(=O)N[C@H](C(=O)N[C@H](C(=O)N[C@@H](CC(C)C)[C@@H](O)CC(=O)N[C@@H](C)C(=O)N[C@@H](CC(C)C)[C@@H](O)CC(=O)NCCCC[C@H](NC(=O)CCOCCOCCNC(=O)CN1CCN(CC(=O)O)CCN(CC(=O)O)CC1)C(=O)O)C(C)C)C(C)C`: “association rate constant” 333 M⁻¹ s⁻¹ (Cathepsin D (CTSD, Homo sapiens, UniProt P07339); surface plasmon resonance).
The TΔS of `CC(NC(=O)CCCc1ccc2ccc3cccc4ccc1c2c34)C(=O)NO` (stereo not drawn) is reported as 6.1 kcal/mol (HDAC8 (Homo sapiens, UniProt Q9BY41); ITC; Hepes buffer; pH 7.5).
`CCCCC[C@@H]1OC(=O)[C@@H](C)N(C)C(=O)[C@H](CCCCC)OC(=O)[C@@H](C)N(C)C(=O)[C@H](CC(=O)O)OC(=O)[C@@H](C)N(C)C(=O)[C@H](CCCCC)OC(=O)[C@@H](C)N(C)C1=O`: “closed dwell time constant T1” 2 ± 0.8 ms (ryanodine receptor 2 (Sus scrofa, UniProt A0A5G2R1W3); single-channel gating, planar lipid bilayer; 50 µM, pCa 7, porcine).
For `Cc1nc(CSc2nc(SCc3ccc(C(C)C)cc3)nc(=O)[nH]2)cs1`, “mean linear DNA” read 0% (TOP2A (Homo sapiens, UniProt P11388); DNA cleavage; 7.8 µM).
For `OCCN(CCO)c1nc(N2CCCCC2)c2nc(N(CCO)CCO)nc(N3CCCCC3)c2n1`, “number of binding sites” read 41 nmol (TSPO (Homo sapiens, UniProt P30536); frontal affinity chromatography; platelet membrane affinity column; concentration not given, Miltenyi isolation kit).
For `NC(=O)NOCCCCCCCCCCCCCCCC[P+](c1ccccc1)(c1ccccc1)c1ccccc1.O=C([O-])C(F)(F)F`, “oxygen consumption rate” read 36.4% (MT-CYB/UQCRFS1; complex III-dependent respiration, Seahorse XF96; HCT-116; 5 µM, 24 h; baseline: control).
The inhibition of `CC[C@@H]1[C@H](F)C(=O)N[C@@H]1COc1nccc2cc(C(N)=O)c(OC)cc12` is reported as -0.527% (MAP3K2 (Homo sapiens, UniProt Q9Y2U5); ATP-site probe binding, ActivX profiling; THP-1 cell lysate; 0.04 mM, Lys1 site).
`Cc1cc(Nc2cc(N3CCN(C)CC3)nc(Sc3ccc(NC(=O)C4CC4)cc3)n2)[nH]n1` gave a remaining activity of 98% (VRK2 (Homo sapiens, UniProt Q86Y07); kinase activity, KinaseProfiler; 0.03 µM, species human; baseline: control).
`CC(=O)N[C@@H](C)C(=O)N[C@@H](CC(N)=O)C(=O)NCC(=O)N[C@@H](CC(N)=O)C(=O)N[C@@H](C)C(=O)N[C@@H](CC(N)=O)C(=O)N[C@@H](CCC(=O)O)C(=O)N[C@@H](CCC(=O)O)C(=O)N[C@@H](CC(N)=O)C(=O)NCC(=O)N[C@@H](CCC(=O)O)C(=O)N[C@@H](CCC(N)=O)C(=O)N[C@@H](CCC(=O)O)C(=O)N[C@@H](C)C(=O)N[C@@H](CC(=O)O)C(=O)N[C@@H](CC(N)=O)C(=O)N[C@@H](CCC(=O)O)C(=O)N[C@H](C(=O)N[C@@H](CC(=O)O)C(N)=O)C(C)C` gave a TΔS of -10.1 kcal/mol (KEAP1 Kelch domain; binding, ITC; pH 7, 298.15 K).
`COc1cc(NC(=O)c2ccccn2)ccc1/N=N/c1ccccc1Cl` gave an activation of 92.5% (GRM8 (Homo sapiens, UniProt O00222); positive allosteric modulator, IP accumulation; HEK293; 30 µM, in the dark, with: low-dose orthosteric agonist).
`OC[C@H]1O[C@@H](O[C@H]2[C@H](O)[C@@H](O)C(O)O[C@@H]2CO)[C@H](O)[C@@H](O)[C@H]1O` (mixture of isomers) gave an inhibition of 3.95% (THP-1; pyroptotic LDH release; 2 µM, 40 min, with: LPS then nigericin).
`O=C(Cc1cccs1)N[C@@H]1C(=O)N2C(C(=O)[O-])=C(C[n+]3ccccc3)CS[C@H]12` — result for IC50: “inactive” (glpG (Escherichia coli, UniProt P09391); enzyme activity, inhibitor, gel-based chimeric protein substrate).
`O=C(CSc1n[nH]c(-c2ccccc2Cl)n1)c1ccc(O)c(O)c1` gave a Hill slope of -1.1 (Protein lin-28 homolog A (Mus musculus, UniProt Q8K3Y3)).
`NCCCCC(=O)O`: “normalised MST signal” -0.00088 (SLC6A6 (Homo sapiens, UniProt P31641, Y138A); binding, microscale thermophoresis; 250 µM, room temperature, with: 50 nM labelled protein; higher = more binding).
`CN1CCN(c2cc(-c3ccncc3)c(-c3ccc4ccccc4c3)nn2)CC1` has an activation of -1.7% (FSHR (Homo sapiens, UniProt P23945); agonist, FLIPR; 12.5 µM).
`NC(=O)NOCCCCCCCCCCCCCC[P+](c1ccccc1)(c1ccccc1)c1ccccc1.O=C([O-])C(F)(F)F` — result for “oxygen consumption rate”: 72.8 ± 3.66% (MT-CYB/UQCRFS1; complex III-dependent respiration, Seahorse XF96; HCT-116; 0.75 µM, 24 h; baseline: control).
The current density of `Nc1ccc(C(=O)O)cc1` is reported as -14.4 pA/pF and -16 pA/pF and -5.11 pA/pF and -15.3 pA/pF and -19.3 pA/pF and -12.4 pA/pF and -3.01 pA/pF (BEST1, with wild-type BEST1 (Homo sapiens, UniProt O76090, A243T); whole-cell patch clamp; HEK293 co-expressing WT and A243T mutant; concentration not given, membrane potential -60 mV).
`Cc1cccc(N(O)N=Nc2ccc(S(=O)(=O)Nc3cc(C)on3)cc2)c1` gave an inhibition of 7.5 ± 0.54% (α-glucosidase, rat intestine; enzyme activity; 20 µg/mL, with: 4-nitrophenyl α-D-glucopyranoside).
`C=CC(=O)N1CCN(c2nc(OC[C@@H]3CCCN3C)nc3c(F)c(-c4nc(N)cc(C)c4C(F)(F)F)c(Cl)cc23)[C@@H](C)C1` — result for “dissociation rate constant koff”: 0.0722 ± 0.0046 s⁻¹ (GTPase KRas, GDP-bound (KRAS, Homo sapiens, UniProt P01116, Q61R); SPR).

A few entries again:
The TΔS of `CC(NC(=O)CCCc1ccc2ccc3cccc4ccc1c2c34)C(=O)NO` (stereo not drawn) is reported as 6.1 kcal/mol (HDAC8 (Homo sapiens, UniProt Q9BY41); ITC; Hepes buffer; pH 7.5).
`CCCCC[C@@H]1OC(=O)[C@@H](C)N(C)C(=O)[C@H](CCCCC)OC(=O)[C@@H](C)N(C)C(=O)[C@H](CC(=O)O)OC(=O)[C@@H](C)N(C)C(=O)[C@H](CCCCC)OC(=O)[C@@H](C)N(C)C1=O`: “closed dwell time constant T1” 2 ± 0.8 ms (ryanodine receptor 2 (Sus scrofa, UniProt A0A5G2R1W3); single-channel gating, planar lipid bilayer; 50 µM, pCa 7, porcine).
For `Cc1nc(CSc2nc(SCc3ccc(C(C)C)cc3)nc(=O)[nH]2)cs1`, “mean linear DNA” read 0% (TOP2A (Homo sapiens, UniProt P11388); DNA cleavage; 7.8 µM).
